{"data": "Measurements of several laboratories", "note": "Lines come from different studies, so protocols differ. Several values in a cell are separate wells, animals, samples, runs or records. Numbers after ± are the reported error."}
{"Compound": "Oc1c(Br)cc(Br)c2cccnc12", "target or system": "pigeon embryo fibroblasts", "measurement": "CC50", "result": "30 µM"}
{"Compound": "CN1C[C@@H]2C[C@H]1CN2c1cc2c(cc1F)c(=O)c(C(=O)O)cn2C1CC1", "target or system": "MDCK-II parental", "test": "apical-to-basolateral transport, transepithelial transport", "test system": "HBSS with HEPES", "setting": "10 µM, 4 h", "measurement": "percent transported", "result": "18.3 ± 4.03%"}
{"Compound": "CC(=NNC(=O)COc1ccc2c(C)c(Cc3ccccc3)c(=O)oc2c1C)c1ccc(Br)cc1", "target or system": "HPrEC normal prostate epithelial cells", "test": "MTT", "setting": "0.2 µg/mL, 2% serum", "measurement": "viability", "result": "93.3%"}
{"Compound": "CC(=O)[C@]1(O)Cc2c(O)c3c(c(O)c2[C@@H](O[C@H]2C[C@H](N)[C@H](O)[C@H](C)O2)C1)C(=O)c1ccccc1C3=O", "target or system": "Toxoplasma gondii", "test": "bradyzoite growth", "setting": "pH 8.2, alkaline-induced bradyzoites", "measurement": "EC50", "result": "0.3 µM"}
{"Compound": "COc1cc2ncnc(Nc3ccc(F)c(Cl)c3)c2cc1NC(=O)/C=C/CN1CCCCC1", "target or system": "U87", "setting": "concentration not given", "measurement": "cytotoxicity", "result": "toxic"}
{"Compound": "CCOC(=O)c1c(C)nc2ccc(-c3ccc(OCc4ccccc4)c(F)c3)cc2c1O", "target or system": "MCF-10A", "test": "MTT", "setting": "up to 100 µM", "measurement": "cytotoxicity", "result": "not toxic"}
{"Compound": "C[C@]12CC[C@@H]3c4ccc(O)cc4C[C@@H](CCCCCCCCC[S+]([O-])CCCC(F)(F)C(F)(F)F)[C@H]3[C@@H]1CC[C@@H]2O (some centres unmarked)", "target or system": "MCF7", "test": "CCK-8", "setting": "20 nM", "scale": "reference: untreated", "measurement": "viability", "result": "61.1% and 64.1% and 58.3%"}
{"Compound": "CCCC[P+](/C=C(/c1ccccc1)c1cc(Cl)ccc1O)(CCCC)CCCC.[Cl-]", "target or system": "human red blood cells", "test system": "PBS", "setting": "1 h, 37 °C", "measurement": "HC50", "result": "110 µM"}
{"Compound": "O=C(O)c1cccnc1Nc1cccc(C(F)(F)F)c1", "target or system": "MDCK-LE, low efflux", "test": "passive permeability", "setting": "apical to basolateral", "measurement": "Papp", "result": "46 ×10⁻⁶ cm/s"}
{"Compound": "CC(C)=CC(=O)Nc1ccc(C2=C(c3ccc(O)cc3)C3OC2CC3S(=O)(=O)N(CC(F)(F)F)c2ccc(F)cc2)cc1 (centres unmarked)", "target or system": "MCF-10A", "test": "cell viability", "setting": "72 (unit not given)", "measurement": "IC50", "result": "> 50 µM"}
{"Compound": "CO[C@@H]1[C@H](OC(=O)/C=C/C=C/C=C/C=C/C(=O)O)CC[C@]2(CO2)[C@H]1[C@@]1(C)O[C@@H]1CC=C(C)C", "target or system": "pigeon embryo fibroblasts", "measurement": "CC50", "result": "~200 µM"}
{"Compound": "[N-]=[N+]=N[C@]1(CO)O[C@@H](n2ccc(N)nc2=O)[C@@H](F)[C@@H]1O", "target or system": "A549-hACE2", "test": "cytotoxicity", "setting": "24 (unit not given)", "measurement": "CC50", "result": "> 100 µM"}
{"Compound": "CC(C)C[C@H](NC(=O)[C@H](Cc1ccccc1)NC(=O)c1cnccn1)B(O)O", "target or system": "CHP-212 parental", "test": "SRB", "setting": "0.04115 µM", "measurement": "viability", "result": "96% and 97.3%"}
{"Compound": "CC(C)=CC(=O)Nc1ccc(C2=C(c3ccc(O)cc3)C3CC(S(=O)(=O)N(CC(F)(F)F)c4ccccc4)C2O3)cc1 (centres unmarked)", "target or system": "MCF-10A", "test": "cell viability", "setting": "72 (unit not given)", "measurement": "IC50", "result": "> 50 µM"}
{"Compound": "CC(C)C[C@@H](C=O)NC(=O)[C@H](CC(C)C)NC(=O)[C@H](CC(C)C)NC(=O)OCc1ccccc1", "target or system": "pigeon embryo fibroblasts", "measurement": "CC50", "result": "35 µM"}
{"Compound": "O=C(CBr)Nc1ccc(C2=C(c3ccc(O)cc3)C3OC2CC3S(=O)(=O)Oc2ccccc2)cc1 (centres unmarked)", "target or system": "MCF-10A", "test": "cell viability", "setting": "72 (unit not given)", "measurement": "IC50", "result": "8.08 ± 0.22 µM"}
{"Compound": "COc1cccc(-c2n[nH]c(SCc3ccccn3)n2)c1OC", "target or system": "CHO-WBL", "setting": "100 µg/mL, 3 h, with: rat liver S9", "measurement": "micronuclei per binucleated cell", "result": 0.02}
{"Compound": "CCC[P+](/C=C(/c1ccccc1)c1cc(Cl)ccc1O)(CCC)CCC.[Cl-]", "target or system": "human red blood cells", "test system": "PBS", "setting": "1 h, 37 °C", "measurement": "HC50", "result": "90 µM"}
{"Compound": "CCN(c1ccc(OC)cc1)S(=O)(=O)C1CC2OC1C(c1ccc(O)cc1)=C2c1ccc(NC(=O)C=C(C)C)cc1 (centres unmarked)", "target or system": "MCF-10A", "test": "cell viability", "setting": "72 (unit not given)", "measurement": "IC50", "result": "20.1 ± 1.06 µM"}
{"Compound": "COC[C@@H](CC(C)C)NC(=O)c1ccc(C)c(C)c1", "target or system": "primary human lymphocytes", "test": "item: structural aberrations", "setting": "280 µg/mL, 4 h, without S9", "measurement": "cells with aberrations", "result": "0%"}
{"Compound": "C=CC(=O)Nc1ccc(OS(=O)(=O)C2CC3OC2C(c2ccc(O)cc2)=C3c2ccc(O)cc2)cc1 (centres unmarked)", "target or system": "MCF-10A", "test": "cell viability", "setting": "72 (unit not given)", "measurement": "IC50", "result": "20 ± 3.61 µM"}
{"Compound": "Cc1cccc(C)c1OCC(=O)NC(CCC(Cc1ccccc1)NC(=O)C(C(C)C)N1CCCNC1=O)Cc1ccccc1 (centres unmarked)", "target or system": "HEK293T ΔE", "test": "cytotoxicity, item: cell count", "scale": "reference: vehicle", "measurement": "EC50", "result": "40.7 µM"}
{"Compound": "CC/C(=C(/c1ccc(OCCNC)cc1)c1ccc(B2OC(C)(C)C(C)(C)O2)cc1)c1ccccc1", "target or system": "MCF7", "setting": "1 µM, 4 h", "measurement": "conversion to endoxifen", "result": "60%"}
{"Compound": "COc1cccc2c1C(=O)c1c(O)c3c(c(O)c1C2=O)C[C@@](O)(C(=O)CO)C[C@@H]3O[C@H]1C[C@H](N)[C@H](O)[C@H](C)O1", "target or system": "CHP-212 parental", "test": "SRB", "setting": "3.333 µM", "measurement": "viability", "result": "2.73% and 2.99%"}
{"Compound": "C/C=C/C(=O)Nc1ccc(C2=C(c3ccc(O)cc3)C3OC2CC3S(=O)(=O)N(CC(F)(F)F)c2ccc(O)cc2)cc1 (centres unmarked)", "target or system": "MCF-10A", "test": "cell viability", "setting": "72 (unit not given)", "measurement": "IC50", "result": "19.2 ± 3.89 µM"}
{"Compound": "CC(=O)O[C@H]1C(=O)[C@@]2(C)[C@H]([C@H](OC(=O)c3ccccc3)[C@]3(O)C[C@H](OC(=O)[C@H](O)[C@@H](NC(=O)c4ccccc4)c4ccccc4)C(C)=C1C3(C)C)[C@]1(OC(C)=O)CO[C@@H]1C[C@@H]2O", "target or system": "CHP-212 parental", "test": "SRB", "setting": "0.1235 µM", "measurement": "viability", "result": "16.7% and 19.2%"}
{"Compound": "O=c1[nH]cc(F)c(=O)[nH]1", "target or system": "MCF7", "test": "CCK-8", "setting": "50 µM, 72 (unit not given)", "scale": "reference: untreated control", "measurement": "viability", "result": "90.1 ± 1.04%"}
{"Compound": "Cc1noc(C)c1Cn1cc(N2C(=O)CN(Cc3cccc(O)c3)C2=O)cn1", "target or system": "human blood lymphocytes", "setting": "600 µg/mL, 21 h", "measurement": "aberrant cells without gaps", "result": "0%"}
{"Compound": "CCOC(=O)c1c(C)nc2ccc(-c3ccc(F)cc3)cc2c1O", "target or system": "MCF-10A", "test": "MTT", "setting": "up to 100 µM", "measurement": "cytotoxicity", "result": "not toxic"}
{"Compound": "CCN(c1ccc(O)cc1)S(=O)(=O)C1CC2OC1C(c1ccc(O)cc1)=C2c1ccc(NC(=O)C=C(C)C)cc1 (centres unmarked)", "target or system": "MCF-10A", "test": "cell viability", "setting": "72 (unit not given)", "measurement": "IC50", "result": "8.72 ± 0.45 µM"}
{"Compound": "CCCCCCCC[P+](/C=C(/c1ccccc1)c1cc(Cl)ccc1O)(CCCCCCCC)CCCCCCCC.[Cl-]", "target or system": "human red blood cells", "test system": "PBS", "setting": "1 h, 37 °C", "measurement": "HC50", "result": "140 µM"}
{"Compound": "Cc1nn(-c2nc3c(F)cc(F)cc3s2)c(O)c1C(c1ccc(C(F)(F)F)cc1)c1c(C)nn(-c2nc3c(F)cc(F)cc3s2)c1O", "target or system": "THP1-Dual", "test": "cell viability, CCK-8", "setting": "24 h", "measurement": "CC50", "result": "64.5 µM and 74.7 µM"}
{"Compound": "CC[C@H]1CN2CCc3cc(OC)c(OC)cc3[C@@H]2C[C@@H]1C[C@H]1NCCc2cc(OC)c(OC)cc21", "target or system": "Toxoplasma gondii", "test": "tachyzoite growth, luciferase", "test system": "ME49-Fluc, type II", "measurement": "EC50", "result": "0.03 µM"}
{"Compound": "CC/C(=C(\\c1ccc(O)cc1)c1ccc(OCCN(C)C)cc1)c1ccccc1", "target or system": "MCF-10A", "test": "cell viability", "setting": "72 (unit not given)", "measurement": "IC50", "result": "21.5 ± 2.74 µM"}
{"Compound": "CC(=O)c1c(O)c(C)c(O)c2c1OC1=CC(=O)C(C(C)=O)C(=O)C12C (centres unmarked)", "target or system": "pigeon embryo fibroblasts", "measurement": "CC50", "result": "45 µM"}
{"Compound": "Cc1cc(C(=O)NC(C)(C)COc2cccc3c2C(N)=NS(=O)(=O)N3)cc(C)n1", "target or system": "human peripheral blood lymphocytes", "test": "CBPI, preliminary test", "setting": "600 µg/mL, 4 h", "scale": "reference: vehicle control", "measurement": "cytotoxicity", "result": "5%"}
{"Compound": "COc1ncnc(C2CC2)c1-c1ncc2cnn(Cc3ccc(-c4nc(C(F)(F)F)cn4C(C)C)cc3)c2n1", "target or system": "CHP-212 parental", "test": "SRB", "setting": "6.25 µM", "measurement": "viability", "result": "87.1% and 83.2%"}
{"Compound": "CSc1ccc(OCc2ncc([N+](=O)[O-])n2C)cc1", "target or system": "pigeon embryo fibroblasts", "measurement": "CC50", "result": "~200 µM"}
{"Compound": "C#Cc1cccc(Nc2ncnc3cc(OCCOC)c(OCCOC)cc23)c1", "target or system": "HPrEC normal prostate epithelial cells", "test": "MTT", "setting": "1.6 µg/mL, 2% serum", "measurement": "viability", "result": "69.2%"}
{"Compound": "Cc1nn(-c2nc3ccc(Cl)c(Cl)c3[nH]2)c(O)c1C1OC(=O)c2ccccc21 (centres unmarked)", "target or system": "RAW-ISG (mouse)", "test": "cell viability, CCK-8", "setting": "24 h", "measurement": "CC50", "result": "70.1 µM"}
{"Compound": "Cc1cccc(C)c1OCC(=O)N[C@@H](Cc1ccccc1)[C@@H](O)C[C@H](Cc1ccccc1)NC(=O)[C@H](C(C)C)N1CCCNC1=O", "target or system": "HEK293T tetracycline-induced EGFP-ΔE", "test": "cytotoxicity", "scale": "reference: vehicle", "measurement": "EC50", "result": "37.2 µM"}
{"Compound": "C[C@](C#N)(COc1cc(C#N)ccc1C(F)(F)F)NC(=O)c1ccc(SC(F)(F)F)cc1", "target or system": "MCF-10A", "setting": "50 µM, 48 (unit not given)", "scale": "reference: negative control", "measurement": "cytotoxicity", "result": "18.2 ± 2.93%"}
{"Compound": "CC(C)c1nc(CN(C)C(=O)N[C@H](C(=O)N[C@H](CC[C@H](Cc2ccccc2)NC(=O)OCc2cncs2)Cc2ccccc2)C(C)C)cs1", "target or system": "HEK293T ΔE", "test": "cytotoxicity, item: cell count", "scale": "reference: vehicle", "measurement": "EC50", "result": "66.2 µM"}
{"Compound": "CCCCC[P+](/C=C(/c1ccccc1)c1cc(Cl)ccc1O)(CCCCC)CCCCC.[Cl-]", "target or system": "human red blood cells", "test system": "PBS", "setting": "1 h, 37 °C", "measurement": "HC50", "result": "180 µM"}
{"note": "Excerpt of the above:"}
{"Compound": "COc1ncnc(C2CC2)c1-c1ncc2cnn(Cc3ccc(-c4nc(C(F)(F)F)cn4C(C)C)cc3)c2n1", "target or system": "CHP-212 parental", "test": "SRB", "setting": "6.25 µM", "measurement": "viability", "result": "87.1% and 83.2%"}
{"Compound": "Cc1cc(C(=O)NC(C)(C)COc2cccc3c2C(N)=NS(=O)(=O)N3)cc(C)n1", "target or system": "human peripheral blood lymphocytes", "test": "CBPI, preliminary test", "setting": "600 µg/mL, 4 h", "scale": "reference: vehicle control", "measurement": "cytotoxicity", "result": "5%"}
{"Compound": "CO[C@@H]1[C@H](OC(=O)/C=C/C=C/C=C/C=C/C(=O)O)CC[C@]2(CO2)[C@H]1[C@@]1(C)O[C@@H]1CC=C(C)C", "target or system": "pigeon embryo fibroblasts", "measurement": "CC50", "result": "~200 µM"}
{"Compound": "CCC[P+](/C=C(/c1ccccc1)c1cc(Cl)ccc1O)(CCC)CCC.[Cl-]", "target or system": "human red blood cells", "test system": "PBS", "setting": "1 h, 37 °C", "measurement": "HC50", "result": "90 µM"}
